Assay results from different studies.
Compare with care: the assays were run in different laboratories. Values joined by “and” are separate records of one study, mostly repeats; a detail may differ.
rep main protease: Replicase polyprotein 1ab, main protease (rep, Severe acute respiratory syndrome coronavirus 2, UniProt P0DTD1)
Spike glycoprotein: Spike glycoprotein (Severe acute respiratory syndrome coronavirus 2, UniProt P0DTC2)

With Nc1ncnc2c([C@@H]3N[C@H](CO)[C@@H](O)[C@H]3O)c[nH]c12 the inhibition was 15.1% (Nipah henipavirus; viral replication; HeLa, Malaysia; 0.8 µM).
With CC(C)C[C@H](NC(=O)[C@@H](NC(=O)c1cccc(-c2ccccc2)n1)[C@@H](C)O)B(O)O the inhibition was -3.71% (rep main protease; reporter gene (Gaussia luciferase), inhibitor; 20 µM).
O=C(/C=C/c1ccc(O)c(O)c1/C=C/c1ccc(O)c(O)c1)O[C@H](Cc1ccc(O)c(O)c1)C(=O)O has a koff of 0.00879 s⁻¹ (Spike glycoprotein; binding).
Nc1cc(OCCNC(=O)c2ccc(S(=O)(=O)F)cc2)ccn1 has a kinact of 0.000467 s⁻¹ (Calmodulin-sensitive adenylate cyclase (cya, Bacillus anthracis, UniProt P40136)).
Under “lowest cytotoxic concentration”, CC[C@H](C)[C@H](NC(=O)[C@H](CO)NC(=O)[C@@H]1CCCN1C(=O)[C@H](CO)NC(=O)[C@@H](N)CCSC)C(=O)N[C@@H](CC(C)C)C(=O)N[C@@H](CCCCN)C(=O)N[C@@H](Cc1c[nH]cn1)C(=O)N[C@@H](Cc1c[nH]c2ccccc12)C(=O)N[C@@H](CO)C(=O)N[C@@H](CCCNC(=N)N)C(=O)N[C@@H](CCC(N)=O)C(=O)NCC(=O)NCC(=O)NCC(=O)N[C@@H](CCCCN)C(=O)N[C@@H](CC(C)C)C(=O)N[C@@H](CCCCN)C(=O)N[C@@H](CCCCN)C(=O)N[C@@H](CC(C)C)C(=O)N[C@@H](CC(C)C)C(=O)N[C@@H](CC(C)C)C(=O)NCC(=O)N[C@@H](CC(C)C)C(=O)N[C@@H](CC(C)C)C(=O)N[C@@H](CC(C)C)C(=O)N[C@@H](CCCCN)C(=O)N[C@@H](CCCCN)C(=O)O is recorded as 64 µg/mL (HEK-293T; cell death; 24 h, 10% cell death).
The inhibition of Nc1ccc2cc3ccc(N)cc3nc2c1 is reported as -0.49% (rep main protease; reporter gene (mKate2), inhibitor; HEK293T; 20 µM).
Cn1cnc(Cn2c(=O)[nH]/c(=N\c3cc4cn(C)nc4cc3Cl)n(Cc3cc(F)c(F)cc3F)c2=O)n1 — result for “patients with adverse event”: 0% (human, moderate renal impairment; oral, 375 mg, hypertriglyceridaemia TEAE, Severe severity).
For CC[C@H](C)[C@H](NC(=O)[C@H](CC(C)C)NC(=O)[C@H](Cc1c[nH]c2ccccc12)NC(=O)[C@H](CCC(N)=O)NC(=O)[C@@H](NC(=O)[C@H](Cc1ccccc1)NC(=O)[C@H](C)NC(=O)[C@H](CCCCNC(=O)COCCOCCNC(=O)COCCOCCNC(=O)CC[C@H](NC(=O)CCCCCCCCCCCCCCCCCCC(=O)O)C(=O)O)NC(=O)[C@H](CCC(N)=O)NC(=O)[C@H](C)NC(=O)[C@@H](NC(=O)[C@H](CCCCN)NC(=O)[C@H](CC(=O)O)NC(=O)[C@H](CC(C)C)NC(=O)C(C)(C)NC(=O)[C@@H](NC(=O)[C@H](CO)NC(=O)[C@H](Cc1ccc(O)cc1)NC(=O)[C@H](CC(=O)O)NC(=O)[C@H](CO)NC(=O)[C@@H](NC(=O)[C@H](Cc1ccccc1)NC(=O)[C@@H](NC(=O)CNC(=O)[C@H](CCC(=O)O)NC(=O)C(C)(C)NC(=O)[C@@H](N)Cc1ccc(O)cc1)[C@@H](C)O)[C@@H](C)O)[C@@H](C)CC)[C@@H](C)CC)C(C)C)C(=O)N[C@@H](C)C(=O)NCC(=O)NCC(=O)N1CCC[C@H]1C(=O)N[C@@H](CO)C(=O)N[C@@H](CO)C(=O)NCC(=O)N[C@@H](C)C(=O)N1CCC[C@H]1C(=O)N1CCC[C@H]1C(=O)N1CCC[C@H]1C(=O)N[C@@H](CO)C(N)=O, “subjects with adverse events” read 0% (item: Dyspepsia; healthy subjects; 5/5/8/10 mg titrated, multiple ascending dose).
For Cc1cncc(CC(=O)N2CCC[C@@H]([C@@H]3CCN(C(=O)c4cnn(-c5ccccn5)c4)C3)C2)c1, the inhibition was 20.5% (rep main protease; enzyme activity, inhibitor; 5 µM, run 2).
The efficacy of Cc1noc2c(NC3CCOCC3)cc(-c3cccc(C(F)(F)F)c3)nc12 is reported as 22.8% (SARS-CoV-2; cytopathic effect; USA_WA1/2020; retest, 8-point, duplicates).
The inhibition of NC(=O)c1ncn([C@@H]2O[C@H](CO)[C@@H](O)[C@H]2O)c1O is reported as -0.271% (rep main protease; reporter gene (mKate2), inhibitor; HEK293T; 20 µM).
For Cc1nocc1C(=O)N1Cc2ccccc2[C@@H](CNC(=O)c2cncc3ccc(F)cc23)C1, the inhibition was 13% (rep main protease; enzyme activity, inhibitor; 5 µM, mean of runs).
The kon of O=C1c2c(O)cccc2C([C@@H]2O[C@H](CO)[C@@H](O)[C@H](O)[C@H]2O)c2cc(CO)cc(O)c21 (stereo partly drawn) is reported as 427 M⁻¹ s⁻¹ (Spike glycoprotein; binding, BLI).
For CC(C)C[C@H](NC(=O)CNC(=O)[C@H](CCCCN)NC(=O)[C@H](CC(C)C)NC(=O)[C@H](CC(C)C)NC(=O)[C@H](CC(C)C)NC(=O)[C@H](CCCCN)NC(=O)[C@@H](N)CCCCN)C(=O)N[C@@H](CC(C)C)C(=O)N[C@@H](CC(C)C)C(=O)N[C@@H](CC(C)C)C(=O)N[C@@H](CCCCN)C(=O)N[C@@H](CCCCN)C(=O)O, “lowest cytotoxic concentration” read 256 µg/mL (HEK-293T; cell death; 24 h, 10% cell death).
The kon of OCC1(O)COc2cc(O)ccc2-c2cc(O)c(O)cc2C1 (stereo not drawn) is reported as 93.2 M⁻¹ s⁻¹ (Spike glycoprotein; binding, biolayer interferometry).
With COc1cc(OCc2ccccn2)ccc1/C=C/c1cc(/C=C/c2ccc3cc[nH]c3c2)n[nH]1 the inhibition was -0.341% (rep main protease; viral replication, Gluc reporter; SARS-CoV-2; 20 µM).
With CCc1c(C(=O)C(N)=O)c2c(OCC(=O)O)cccc2n1Cc1ccccc1 the remaining activity was 92.3% and 92.5% and 94% (Daboia russelii venom phospholipase A2; enzyme activity, inhibitor; MH population; 0.01 µM, with: NOB substrate; relative to: venom alone).
Cc1cncc(C(=O)NC[C@H]2c3ccccc3CCN2C(=O)c2cccn3nnnc23)c1 has an inhibition of 28.4% (rep main protease; enzyme activity, inhibitor; 5 µM, mean of runs).
Under “injury, poisoning, procedural complications incidence”, COc1ccc([C@@H](O)c2cc(-c3ncnc4cc(N5CCOCC5)ccc34)c(F)cc2Cl)nn1 is recorded as 2% (patients, advanced solid tumours; oral, 100 mg once daily, 10 dosing days, treatment-emergent, with: avelumab, radiotherapy).
The kon of CC[C@H](C)[C@H](NC(=O)[C@@H]1CCCN1C(=O)[C@H](C)NC(=O)[C@@H]1CSSC[C@@H]2NC(=O)[C@H](CC(=O)O)NC(=O)[C@H](CCCNC(=N)N)NC(=O)[C@H](CCC(=O)O)NC(=O)[C@H](CCCNC(=N)N)NC(=O)CNC(=O)[C@H](CC(=O)O)NC(=O)[C@@H]3CSSC[C@H](NC(=O)[C@H](CCC(=O)O)NC(=O)[C@H](CC(C)C)NC(=O)CNC(=O)[C@H](C)NC(=O)[C@H](CSSC[C@H](NC(=O)[C@H](Cc4ccccc4)NC(=O)[C@@H](N)CO)C(=O)N[C@@H](CC(C)C)C(=O)N[C@@H](C(C)C)C(=O)N[C@@H](CCCCN)C(=O)N[C@@H](Cc4c[nH]c5ccccc45)C(=O)N[C@@H](CCCCN)C(=O)N[C@@H](CCC(N)=O)C(=O)N3)NC2=O)C(=O)N[C@@H](Cc2c[nH]c3ccccc23)C(=O)N[C@@H](CCCCN)C(=O)N[C@@H](CCCNC(=N)N)C(=O)N[C@@H](CCCNC(=N)N)C(=O)NCC(=O)N[C@@H](CC(N)=O)C(=O)N[C@@H](CCCCN)C(=O)N[C@@H](CO)C(=O)N[C@@H](CO)C(=O)N[C@@H](C(C)C)C(=O)N1)C(=O)N[C@H](C(=O)O)[C@@H](C)O is reported as 4.79e+07 M⁻¹ s⁻¹ (Acid-sensing ion channel 1 (ASIC1, Homo sapiens, UniProt P78348); binding, SPR; pH 7.5).
Nc1cccc(C(=O)NC[C@H](NC(=O)c2cnc3n[nH]nc3c2)c2ccc3ccccc3c2)c1 has an inhibition of 12% (rep main protease; enzyme activity, inhibitor; 5 µM, run 2).

A few entries again:
For Cc1cncc(CC(=O)N2CCC[C@@H]([C@@H]3CCN(C(=O)c4cnn(-c5ccccn5)c4)C3)C2)c1, the inhibition was 20.5% (rep main protease; enzyme activity, inhibitor; 5 µM, run 2).
Cn1cnc(Cn2c(=O)[nH]/c(=N\c3cc4cn(C)nc4cc3Cl)n(Cc3cc(F)c(F)cc3F)c2=O)n1 — result for “patients with adverse event”: 0% (human, moderate renal impairment; oral, 375 mg, hypertriglyceridaemia TEAE, Severe severity).
The efficacy of Cc1noc2c(NC3CCOCC3)cc(-c3cccc(C(F)(F)F)c3)nc12 is reported as 22.8% (SARS-CoV-2; cytopathic effect; USA_WA1/2020; retest, 8-point, duplicates).
